Experimental data of several laboratories.
“And” joins repeats or separate records; there may be more than shown. ± gives the spread as reported.

| Structure (SMILES) | assay | test system | setting | how to read | endpoint | result |
| --- | --- | --- | --- | --- | --- | --- |
| CCCCC1=NC2(CCCC2)C(=O)N1Cc1ccc(-c2ccccc2S(=O)(=O)Nc2noc(C)c2C)c(COCC)c1 | – | healthy adult volunteers, plasma | oral, 400 mg, 14 days repeated dosing, fasted, crushed tablet | – | AUC(0-inf) | 63600 ng·h/mL |
| CC(C)C[C@H](NC(=O)[C@@H](Cc1c[nH]c2ccccc12)NC(=O)[C@H](Cc1ccc(O)cc1)NC(=O)[C@H](CO)NC(=O)[C@H](Cc1c[nH]c2ccccc12)NC(=O)[C@H](Cc1c[nH]cn1)NC(=O)[C@@H]1CCC(=O)N1)C(=O)N[C@@H](CCCNC(=N)N)C(=O)N1CCC[C@H]1C(=O)NCC(N)=O | – | Chinese CPP children, overall | intramuscular, 22.5 mg, 12 months, day 1, month 6 | – | patients, grade ≥3 TEAEs | 0% |
| N#Cc1ccc2c(c1)[C@H]1CCCN(C(=O)c3ccc4[nH]cnc4c3)[C@H]1C2 | – | human males | 360 mg, day 7 | – | total testosterone level | 16.2 nmol/L |
| CCN1/C(=C/C(C)=O)Sc2ccc(F)cc21 | – | cynomolgus monkey | oral, 100 mg/kg, 0.5 h post-dose | baseline: pre-dose | systolic blood pressure change | 100 ± 6% |
| C[C@H](CCC(=O)NCC(=O)O)[C@H]1CC[C@H]2[C@@H]3[C@H](O)C[C@@H]4C[C@H](O)CC[C@]4(C)[C@H]3C[C@H](O)[C@]12C | – | human, plasma | endogenous baseline diurnal | – | daily mean concentration | 64.2 ± 9.5 nM |
| Cc1ccc(Sc2ccccc2N2CCNCC2)c(C)c1 | – | healthy adult men | oral, 5 mg single dose, treatment-emergent adverse events | – | pyrexia incidence | 0% |
| CNCc1ccc(-c2[nH]c3cc(F)cc4c3c2CCNC4=O)cc1 | – | patients | oral, 480 mg twice daily, all grades | – | asthenia/fatigue incidence | 55.6% |
| CCCCCc1ccc(C(=O)Oc2ccc(C#N)c(F)c2)cc1 | refers to: compound | human pregnant women, male fetuses, cord serum | dose not given, paired maternal-cord samples, mean | – | concentration | 0.88 ng/mL |
| Cc1cccc(Cn2cc(CO)c3cnccc32)c1 | – | F344 rat, male, serum | oral, 100 mg/kg/day, 2 days | – | GGT | 0 U/L and 2 U/L |
| CCc1ccc(C(COC)NS(=O)(=O)c2ccsc2C(=O)O)o1 (stereo not drawn) | colloidal aggregate formation, dynamic light scattering | 50 mM potassium phosphate buffer | 200 µM, pH 7.0, 1% DMSO | higher = more aggregation | DLS scattered light intensity | 384000 counts/s |
| COc1cc(Nc2ncc3c(n2)-c2ccc(Cl)cc2C(c2c(F)cccc2OC)=NC3)ccc1C(=O)O | – | patients | oral, dose not given, grade 1, any attribution, together with: pembrolizumab | – | decreased white cell count incidence | 29% |
| C[C@@H]1CCO[C@H]2Cn3cc(C(=O)NCc4ccc(F)cc4F)c(=O)c(O)c3C(=O)N12 | population PK, post-hoc | children, 25 to <30 kg, plasma | oral, 35 mg film-coated tablet, steady state, geometric mean | – | AUC(0-24) | 51000 ng·h/mL |
| CNC(=O)c1cc(Oc2ccc(NC(=O)Nc3ccc(Cl)c(C(F)(F)F)c3)cc2)cc[n+]1[O-] | – | mouse, wild type, plasma | oral, 10 mg/kg, without rifampin, geometric mean | – | AUC(0-7.5 h) | 150 ng·h/mL |
| COc1ncc(-c2nc3c(n2C(C)C)[C@H](c2ccc(Cl)cc2)N(c2cc(Cl)cn(C)c2=O)C3=O)c(OC)n1 | – | human patients, plasma | oral, 45 mg, cycle 1 day 1, low-dose | – | median Tmax | 2 h |
| Cc1cc(-c2nccc3c2ccn3CC(=O)Nc2ccc(-c3cnccn3)cn2)ccn1 | – | human | 15 mg once daily, multiple ascending dose | – | subjects with gastrointestinal disorders | 11.1% |
| O=C(Nc1nc2cccc(-c3ccc(CN4CCS(=O)(=O)CC4)cc3)n2n1)C1CC1 | refers to: food allergy | human rheumatoid arthritis patients | oral, 300 mg once daily, 4 weeks, regardless of relatedness | – | treatment-emergent adverse events | 0% |
| Cc1cc(C)c(CNC(=O)c2cc(Cl)c3c(c2C)O[C@@](C)([C@H]2CC[C@H](N(C)C)CC2)O3)c(=O)[nH]1 | radiochromatography | human, urine | oral, 200 mg | baseline: dose | urinary excretion | 8.8% and 14.5% and 9% and 9.3% |
| NCCONC(=O)[C@@H]1CC[C@@H]2CN1C(=O)N2OS(=O)(=O)O | refers to: leading to permanent discontinuation | healthy Chinese men | intravenous, 2 g, treatment-related | – | adverse event incidence | 0% |
| Cc1c(-c2ccc(N3CCc4cccc(C(=O)Nc5nc6ccccc6s5)c4C3)nc2C(=O)O)cnn1CC12CC3(C)CC(C)(C1)CC(OCCNCC[C@H](O)CO)(C3)C2 | – | beagle dog, anaesthetised | intravenous infusion, 0.1 mg/kg/min, 105 min | baseline: baseline | mean arterial pressure change | -5 mmHg |
| O=C(O)c1cccc2ccccc12 | haemolysis | sheep erythrocytes | 1 h, pH 7.5 | – | HC50 | > 128 µg/mL |
| Nc1ccn([C@@H]2O[C@H](CO)[C@@H](O)C2(F)F)c(=O)n1 | refers to: dFdU | human, plasma | intravenous, 800 mg/m^2, together with: before paricalcitol | – | Tmax, mean | 1.09 h |
| CC(C)(C(=O)N1CCOc2c(C#N)cncc2C1)C(F)F | refers to: Ecchymosis | human | oral, 20 mg twice daily, 14 days, multiple ascending dose | – | subjects with adverse event | 0% |
| O=C(Nc1cnccc1Cl)N1CCN(Cc2ccc3c(c2)OC(F)(F)O3)CC1 | multiple ascending dose | elderly men and women | 100 mg, treatment-emergent adverse events | – | alanine aminotransferase increased | 0% |
| Cc1ccc([C@@H]2O[C@H](CO)[C@@H](O)[C@H](O)[C@H]2O)cc1Cc1ccc(-c2ccc(F)cc2)s1 | – | Japanese type 2 diabetes patients | 25 mg, day 17, 24 h urine collection | baseline: baseline | urinary calcium excretion change | -7.71 mg |
| Cn1cc([C@H]2C[C@H]3CSC(N)=N[C@@]3(c3ccc(F)cc3F)CO2)cn1 | – | male 129/SVE mouse, brain | subcutaneous, 50 mg/kg, 3 h | – | brain concentration | 5.94 µM |
| CN(C(=O)n1cnc(-c2cccnc2)c1)C1CCCCC1 | – | Wistar rat, cerebellum | oral, 10 mg/kg of BIA 10-2474, 24 h, single dose | – | concentration | 5.9 ± 0.1 ng/g |
| Cc1ccc(NS(=O)(=O)c2cccc(Cl)c2O)c(-c2ncn[nH]2)c1 | colloidal aggregate formation, dynamic light scattering | 50 mM potassium phosphate buffer | 200 µM, pH 7.0, 1% DMSO | higher = more aggregation | DLS scattered light intensity | 404000 counts/s |

| Structure (SMILES) | assay | test system | setting | how to read | endpoint | result |
| --- | --- | --- | --- | --- | --- | --- |
| Cc1cnc(N2CC3(CCOCC3)C2)c(C(=O)Nc2ccc(C(=O)N3CCc4cc(C(=O)Nc5c(C)cccc5F)sc4-c4ccccc43)cc2)c1 | – | human, nasal epithelial lining fluid | inhaled, 5 mg twice daily, 12 h | – | concentration | 17700 ng/mL |
| CCc1ccc(-c2ccc(-c3cc(F)c(F)c(F)c3)c(F)c2)cc1 | refers to: compound | human pregnant women, male fetuses, maternal serum | dose not given, paired maternal-cord samples, mean | – | concentration | 0.81 ng/mL |
| Cn1ncc(S(=O)(=O)NCc2ccccc2SC(F)(F)F)c1C(=O)O | colloidal aggregate formation, dynamic light scattering | 50 mM potassium phosphate buffer | 200 µM, pH 7.0, 1% DMSO | higher = more aggregation | DLS scattered light intensity | 1.41e+06 counts/s |
| C[Si](C)(C)O[Si](C)(C)O[Si](C)(C)C | – | 1-octanol/water | 2.7-6.3 µg/L in water, 20.8 °C | – | log KOW | 6.87 |
| [Cl-].c1csc([I+]c2cccs2)c1 | – | athymic mouse | 6 mg/kg, several weeks, together with: DPI 2 mg/kg | baseline: baseline | lean body mass loss | < 10% |
| CNC(=O)c1ccc(-c2cnc3ncc(Cc4ccc5ncccc5c4)n3n2)cc1F | – | human, plasma | oral, 300 mg twice daily, capsule, cycle 1 day 15 | – | Tmax, median | 2 h |
| CCn1cc(C(=O)N2CCOCC2)c(=O)c2cc(NC3Cc4ccccc4C3)cnc21 | – | human, fed | oral suspension, 600 mg/day twice daily, day 8, arithmetic mean | – | AUC(0-12) | 19400 ng·h/mL |
| COC(=O)C1CC(C(NS(=O)(=O)c2cccc(Cl)c2O)C(=O)OC)C1 (stereo not drawn) | colloidal aggregate formation, dynamic light scattering | 50 mM potassium phosphate buffer | 200 µM, pH 7.0, 1% DMSO | higher = more aggregation | DLS scattered light intensity | 391000 counts/s |
| CC[C@H](C)[C@H](NC(=O)[C@H](Cc1ccccc1)NC(=O)[C@H](CCC(=O)O)NC(=O)[C@H](CCCCNC(=O)COCCOCCNC(=O)COCCOCCNC(=O)CC[C@H](NC(=O)CCCCCCCCCCCCCCCCC(=O)O)C(=O)O)NC(=O)[C@H](C)NC(=O)[C@H](C)NC(=O)[C@H](CCC(N)=O)NC(=O)CNC(=O)[C@H](CCC(=O)O)NC(=O)[C@H](CC(C)C)NC(=O)[C@H](Cc1ccc(O)cc1)NC(=O)[C@H](CO)NC(=O)[C@H](CO)NC(=O)[C@@H](NC(=O)[C@H](CC(=O)O)NC(=O)[C@H](CO)NC(=O)[C@@H](NC(=O)[C@H](Cc1ccccc1)NC(=O)[C@@H](NC(=O)CNC(=O)[C@H](CCC(=O)O)NC(=O)C(C)(C)NC(=O)[C@@H](N)Cc1cnc[nH]1)[C@@H](C)O)[C@@H](C)O)C(C)C)C(=O)N[C@@H](C)C(=O)N[C@@H](Cc1c[nH]c2ccccc12)C(=O)N[C@@H](CC(C)C)C(=O)N[C@H](C(=O)N[C@@H](CCCNC(=N)N)C(=O)NCC(=O)N[C@@H](CCCNC(=N)N)C(=O)NCC(=O)O)C(C)C | QT interval corrected for heart rate, 12-lead Holter ECG | healthy human subjects | subcutaneous, 1.5 mg once weekly, 27 h post-dose, steady state | baseline: placebo, time-matched baseline | placebo-subtracted change in QTcI | -5.6 ms |
| CNC(=O)c1ccc(-c2cnc3ncc(Cc4ccc5ncccc5c4)n3n2)cc1F | – | Japanese patients | oral, 400 mg, grade 3/4 | – | Lipase increased dose reduction/interruption | 2% |
| CCCCOC(=O)N1CCN(C(=O)[C@H](CP(=O)(O)O)NC(=O)c2cc(N3CC[C@H](OC)C3)nc(-c3ccccc3)n2)CC1 | – | human | subcutaneous, 8 mg, 24 h post-dose | baseline: baseline | change in heart rate | 0.9 ± 8.6 beats/min |
| C[C@H]1C=C(Cc2ccccc2)C(=O)O1 | soil adsorption | clay loam soil | pH 6.8, organic carbon 0.5 % | – | Freundlich coefficient KF | 1.5 mL/g |
| FC(F)(F)c1ccc(CNc2ccc(Cc3c[nH]c4ncc(Cl)cc34)cn2)cn1 | refers to: Diarrhoea | patients with advanced solid tumours | oral, dose not given, grade 1 and 2, possibly related to drug | – | adverse event incidence | 26% |
| COc1nc(-c2cc(C)c(N[C@@H](C)c3cc(F)cc(F)c3)nn2)ccc1-n1cnc(C)c1 | – | CD-1 mouse, male, plasma | oral, 5 mg/kg | – | Vss | 3.6 L/kg |
| C[C@@H]1OC(=O)[C@H](Cc2ccccc2)[C@H]1O | soil adsorption | tested soils | geometric mean | – | Freundlich coefficient KF | 2.12 mL/g |
| NC1(C(=O)N[C@@H](CCO)c2ccc(Cl)cc2)CCN(c2nc[nH]c3nccc2-3)CC1 | – | metastatic CRPC patients | 480 mg b.i.d., any grade, treatment-related, together with: enzalutamide 160 mg daily | – | incidence of Leukopenia | 20% |
| CNC(=O)c1ccc(-c2cnc3ncc(Cc4ccc5ncccc5c4)n3n2)cc1F | refers to: Insomnia | cancer patients | oral, dose not given, dose escalation, grade 3-4 | – | patients with adverse event | 0% |
| CNC(=O)c1cc(Oc2ccc(NC(=O)Nc3cc(C(C)(C)C)nn3-c3ccc4ncccc4c3)c(F)c2)ccn1 | refers to: worst grade 1 | human | oral, dose not given, cycles 1 and 2, High AUC(0-4 h) subgroup | – | patients with any AE of special interest | 39% |
| Cc1nnc(SCC2=C(C(=O)O)N3C(=O)[C@@H](NC(=O)Cn4cnnn4)[C@H]3SC2)s1 | – | human whole blood | concentration not given, 24 h, 4 °C | – | deviation from nominal concentration | -3.7% |
| O=C(O)CCCOc1ccc([18F])cc1-c1cc(-c2ccccc2C(F)(F)F)n(-c2ccccc2)n1 | gamma counting | male ddY mice, brain | intravenous, 2.1 MBq, 15 min | – | radioactivity uptake | 0.21 ± 0.02 SUV |
| CCOc1ccc2nc(NC(=O)c3cc(=O)c4ccc(C)cc4o3)sc2c1 | haemolysis | sheep erythrocytes | 1 h, pH 7.5 | – | HC50 | > 128 µg/mL |
| CC(=O)N(C)[C@H]1CCN(C(=O)c2cnc3c(c2)C[C@](C)(c2ccc(F)cc2)N3)C1 | – | healthy male subjects, multiple rising dose | oral, 30 mg once daily | – | severe adverse events | 12.5% |
| CC[C@H](C)CCCCC(=O)N[C@@H](CCN)C(=O)N[C@H](C(=O)N[C@@H](CCN)C(=O)N[C@H]1CCNC(=O)[C@H]([C@@H](C)O)NC(=O)[C@H](CCN)NC(=O)[C@H](CCN)NC(=O)[C@H](CC(C)C)NC(=O)[C@@H](Cc2ccccc2)NC(=O)[C@H](CCN)NC1=O)[C@@H](C)O | – | ESKD on long-term intermittent haemodialysis | intravenous infusion, 0.75 mg/kg single dose over 1 h, arithmetic mean | – | volume of distribution (Vz) | 32.4 L |
| CN1C[C@H](COc2nccc3c(NCc4ccco4)cc(Cl)nc23)OC1=O | – | rabbit NZW female, isolated Langendorff heart | 10 µM, 15 min | – | QTc interval | 266 ms |
| Cc1ccc(-n2nc(Br)cc2C(=O)NCc2nocc2C(=O)O)cc1 | colloidal aggregate formation, dynamic light scattering | 50 mM potassium phosphate buffer | 200 µM, pH 7.0, 1% DMSO | higher = more aggregation | DLS scattered light intensity | 404000 counts/s |
| COc1cccc(OC)c1-c1cc(C(=O)NC2(C(=O)O)C3CC4CC(C3)CC2C4)nn1-c1ccc(C(=O)N(C)CCCN(C)CCCN(C)C(=O)CN2CCN(CC(=O)[O-])CCN(CC(=O)[O-])CCN(CC(=O)[O-])CC2)cc1C(C)C.[177Lu+3] (stereo not drawn) | – | mouse HT-29 xenograft | 4 h, biodistribution | baseline: tumour over large intestine | tumour-to-large intestine ratio | 5.86 |
| O=C1NCCc2nc(OCc3cccc(F)c3)ccc21 | refers to: Lacrimation | Sprague-Dawley rat male | oral, 100 mg/kg, 30 min | direction not given | Irwin test score | 0 |
